{"data": "Results gathered from unrelated publications", "note": "Protocols differ between the studies behind these lines. ± gives the spread as reported."}
{"SMILES": "CCCC[C@H](NC(C)=O)C(=O)N[C@H]1CCC(=O)NC[C@@H](C(=O)N[C@@H](Cc2c[nH]c3ccccc23)C(N)=O)NC(=O)[C@H](CCCNC(=N)N)NC(=O)[C@@H](Cc2ccccc2)NC(=O)[C@H](Cc2c[nH]cn2)NC1=O", "system": "beagle dog, female, plasma", "conditions": "subcutaneous, 40.0 mg/kg daily, day 1", "endpoint": "Cmax", "result": "1.01 µg/mL"}
{"SMILES": "CC1=C2C[C@H]3[C@@H](CC[C@@H]4C[C@H](NS(C)(=O)=O)CC[C@@]43C)[C@@H]2CC[C@@]2(C1)O[C@@H]1C[C@H](C)CN[C@H]1[C@H]2C", "system": "patients, plasma", "conditions": "oral, 20 mg daily, day 22, cycle 1", "endpoint": "Cmax", "result": "0.0131 µg/mL"}
{"SMILES": "CC(C)NC[C@@H](C(=O)N1CCN(c2ncnc3c2[C@H](C)C[C@H]3O)CC1)c1ccc(Cl)cc1", "system": "human, hepatic impairment Mild (Child-Pugh), plasma", "conditions": "oral, 100 mg single, geometric mean", "endpoint": "Cmax", "result": "0.053 µg/mL"}
{"SMILES": "CNCc1ccc(-c2[nH]c3cc(F)cc4c3c2CCNC4=O)cc1", "system": "human, plasma", "conditions": "oral, 300 mg, fasted, mean", "endpoint": "Cmax", "result": "0.415 µg/mL"}
{"SMILES": "Cc1cc(Nc2cc3ncccc3c(N[C@@H]3C[C@H]4CC[C@@H](C3)N4CCC#N)n2)n[nH]1", "system": "Sprague-Dawley rat, female, plasma", "conditions": "oral, 100 mg/kg/day, last day of 13 weeks", "endpoint": "Cmax", "result": "0.0374 µg/mL"}
{"SMILES": "Cc1nc2cccc(OCC(C)(C)C(=O)NC(C)C)c2c(N)c1C(=O)O", "system": "female Sprague-Dawley rat, plasma", "conditions": "dietary, 60 mg/kg/day, day 90", "endpoint": "Cmax", "result": "0.0475 µg/mL"}
{"SMILES": "CCC1=C(C)CN(C(=O)NCCc2ccc(S(=O)(=O)NC(=O)N[C@H]3CC[C@H](C)CC3)cc2)C1=O", "test": "cytochrome c release, ELISA", "system": "BALB/cByJ female mouse liver mitochondria", "conditions": "30 min", "how to read": "relative to: alamethicin maximal release", "endpoint": "EC20", "result": "> 800 µM"}
{"SMILES": "Cn1c(-c2ccc(C(N)=O)cc2F)nnc1C(C)(C)Oc1c(F)cc(Cl)cc1F", "system": "elderly non-Japanese subjects, plasma", "conditions": "oral, 20 mg single dose, day 1, median", "endpoint": "Cmax", "result": "0.233 µg/mL"}
{"SMILES": "CO[C@H]1C[C@@H]2CC[C@@H](C)[C@@](O)(O2)C(=O)C(=O)N2CCCC[C@H]2C(=O)O[C@H]([C@H](C)C[C@@H]2CC[C@@H](O)[C@H](OC)C2)CC(=O)[C@H](C)/C=C(\\C)[C@@H](O)[C@@H](OC)C(=O)[C@H](C)C[C@H](C)/C=C/C=C/C=C/1C", "system": "human, whole blood", "conditions": "oral, 15 mg, together with: grapefruit juice", "endpoint": "Cmax", "result": "0.128 µg/mL"}
{"SMILES": "O=C(CCCCCCC(=O)Nc1ccccc1)NO", "system": "patients, serum", "conditions": "oral, 1000 mg, cycle -1 day 2, alone", "endpoint": "Cmax", "result": "8.74 µM"}
{"SMILES": "O=C(O)CCCC[C@@H]1SC[C@@H]2NC(=O)N[C@@H]21", "test": "mitochondrial swelling", "system": "BALB/cByJ female mouse liver mitochondria", "conditions": "30 min, together with: succinate + rotenone", "how to read": "relative to: CaCl2 maximal swelling", "endpoint": "EC20", "result": "> 400 µM"}
{"SMILES": "O=c1[nH]c(=O)c(Cc2cccc(C(F)(F)F)c2)c([C@H]2CC[C@H](c3ccccc3)CC2)[nH]1", "system": "human, fasted, plasma", "conditions": "oral, 300 mg single dose, geometric mean", "endpoint": "Cmax", "result": "0.216 µg/mL"}
{"SMILES": "COc1cccc(-c2n[nH]c(SCc3ccccn3)n2)c1OC", "system": "Sprague-Dawley rat, both sexes, plasma", "conditions": "oral, diet, 30 mg/kg/day, day 7", "endpoint": "Cmax", "result": "2.06 µg/mL"}
{"SMILES": "CC(C)[C@H](N)C(=O)NCCCS(=O)(=O)O", "system": "human, both sexes, plasma", "conditions": "oral, 172 mg capsule", "endpoint": "Cmax", "result": "5.45 ± 1.67 µg/mL"}
{"note": "Some of these lines once more:"}
{"SMILES": "CNCc1ccc(-c2[nH]c3cc(F)cc4c3c2CCNC4=O)cc1", "system": "human, plasma", "conditions": "oral, 300 mg, fasted, mean", "endpoint": "Cmax", "result": "0.415 µg/mL"}
